Measured values collected from several papers.
Numbered parts are unrelated; each lists some results of a single study.
Sequence of UniProt Q8WTQ7 (whole entry, looked up): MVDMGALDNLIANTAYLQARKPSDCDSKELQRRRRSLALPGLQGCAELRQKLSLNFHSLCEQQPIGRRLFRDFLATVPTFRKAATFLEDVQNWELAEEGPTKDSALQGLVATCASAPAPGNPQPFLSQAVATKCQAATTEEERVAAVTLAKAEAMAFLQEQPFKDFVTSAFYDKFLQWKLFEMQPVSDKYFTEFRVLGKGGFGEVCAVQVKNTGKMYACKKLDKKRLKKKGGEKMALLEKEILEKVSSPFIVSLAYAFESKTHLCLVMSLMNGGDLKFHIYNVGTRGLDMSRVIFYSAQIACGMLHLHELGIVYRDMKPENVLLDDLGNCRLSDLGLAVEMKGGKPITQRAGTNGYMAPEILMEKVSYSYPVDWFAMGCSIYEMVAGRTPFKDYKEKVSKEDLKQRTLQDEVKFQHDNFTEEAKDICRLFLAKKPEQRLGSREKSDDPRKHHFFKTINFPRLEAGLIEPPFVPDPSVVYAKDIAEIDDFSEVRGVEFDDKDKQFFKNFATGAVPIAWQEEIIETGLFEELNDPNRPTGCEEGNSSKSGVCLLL
Sequence of UniProt Q02763 (whole entry, looked up): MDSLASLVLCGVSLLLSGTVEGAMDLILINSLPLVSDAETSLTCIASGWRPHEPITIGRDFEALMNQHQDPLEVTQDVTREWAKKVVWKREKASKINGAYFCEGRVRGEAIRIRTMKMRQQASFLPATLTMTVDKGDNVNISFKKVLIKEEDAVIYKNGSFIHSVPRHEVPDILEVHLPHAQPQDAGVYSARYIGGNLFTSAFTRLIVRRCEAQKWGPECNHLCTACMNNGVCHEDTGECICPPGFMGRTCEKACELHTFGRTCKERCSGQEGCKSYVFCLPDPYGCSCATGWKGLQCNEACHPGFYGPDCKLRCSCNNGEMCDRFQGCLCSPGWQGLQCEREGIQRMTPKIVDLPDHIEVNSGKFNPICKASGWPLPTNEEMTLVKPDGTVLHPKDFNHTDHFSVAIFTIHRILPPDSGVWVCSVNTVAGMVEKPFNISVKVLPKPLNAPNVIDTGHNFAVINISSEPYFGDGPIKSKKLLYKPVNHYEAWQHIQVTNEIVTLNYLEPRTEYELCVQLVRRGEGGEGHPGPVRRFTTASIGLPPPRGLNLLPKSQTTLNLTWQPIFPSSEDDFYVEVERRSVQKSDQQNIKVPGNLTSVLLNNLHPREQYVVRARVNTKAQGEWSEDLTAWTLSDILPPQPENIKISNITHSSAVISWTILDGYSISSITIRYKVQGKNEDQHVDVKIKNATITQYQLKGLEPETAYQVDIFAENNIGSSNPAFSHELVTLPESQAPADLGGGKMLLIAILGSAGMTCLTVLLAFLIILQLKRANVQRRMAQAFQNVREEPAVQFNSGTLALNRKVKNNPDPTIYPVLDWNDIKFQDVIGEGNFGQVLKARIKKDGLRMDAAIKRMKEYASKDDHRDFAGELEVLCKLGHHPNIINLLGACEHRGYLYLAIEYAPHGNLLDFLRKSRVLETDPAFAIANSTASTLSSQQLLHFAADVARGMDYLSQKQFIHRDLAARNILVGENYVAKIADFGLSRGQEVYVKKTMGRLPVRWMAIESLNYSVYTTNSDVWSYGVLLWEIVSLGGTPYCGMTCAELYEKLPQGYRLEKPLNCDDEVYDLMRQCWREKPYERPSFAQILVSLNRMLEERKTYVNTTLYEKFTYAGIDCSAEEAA
Sequence of UniProt O14626 (whole entry, looked up): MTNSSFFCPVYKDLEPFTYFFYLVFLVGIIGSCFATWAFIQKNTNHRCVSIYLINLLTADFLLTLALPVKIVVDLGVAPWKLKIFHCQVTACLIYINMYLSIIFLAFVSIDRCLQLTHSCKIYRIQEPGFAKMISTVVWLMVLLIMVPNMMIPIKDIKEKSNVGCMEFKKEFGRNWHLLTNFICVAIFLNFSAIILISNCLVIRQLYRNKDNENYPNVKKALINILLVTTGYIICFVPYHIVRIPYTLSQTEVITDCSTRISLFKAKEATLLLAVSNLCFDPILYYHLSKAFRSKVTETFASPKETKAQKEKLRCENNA
Sequence of UniProt P29320 (whole entry, looked up): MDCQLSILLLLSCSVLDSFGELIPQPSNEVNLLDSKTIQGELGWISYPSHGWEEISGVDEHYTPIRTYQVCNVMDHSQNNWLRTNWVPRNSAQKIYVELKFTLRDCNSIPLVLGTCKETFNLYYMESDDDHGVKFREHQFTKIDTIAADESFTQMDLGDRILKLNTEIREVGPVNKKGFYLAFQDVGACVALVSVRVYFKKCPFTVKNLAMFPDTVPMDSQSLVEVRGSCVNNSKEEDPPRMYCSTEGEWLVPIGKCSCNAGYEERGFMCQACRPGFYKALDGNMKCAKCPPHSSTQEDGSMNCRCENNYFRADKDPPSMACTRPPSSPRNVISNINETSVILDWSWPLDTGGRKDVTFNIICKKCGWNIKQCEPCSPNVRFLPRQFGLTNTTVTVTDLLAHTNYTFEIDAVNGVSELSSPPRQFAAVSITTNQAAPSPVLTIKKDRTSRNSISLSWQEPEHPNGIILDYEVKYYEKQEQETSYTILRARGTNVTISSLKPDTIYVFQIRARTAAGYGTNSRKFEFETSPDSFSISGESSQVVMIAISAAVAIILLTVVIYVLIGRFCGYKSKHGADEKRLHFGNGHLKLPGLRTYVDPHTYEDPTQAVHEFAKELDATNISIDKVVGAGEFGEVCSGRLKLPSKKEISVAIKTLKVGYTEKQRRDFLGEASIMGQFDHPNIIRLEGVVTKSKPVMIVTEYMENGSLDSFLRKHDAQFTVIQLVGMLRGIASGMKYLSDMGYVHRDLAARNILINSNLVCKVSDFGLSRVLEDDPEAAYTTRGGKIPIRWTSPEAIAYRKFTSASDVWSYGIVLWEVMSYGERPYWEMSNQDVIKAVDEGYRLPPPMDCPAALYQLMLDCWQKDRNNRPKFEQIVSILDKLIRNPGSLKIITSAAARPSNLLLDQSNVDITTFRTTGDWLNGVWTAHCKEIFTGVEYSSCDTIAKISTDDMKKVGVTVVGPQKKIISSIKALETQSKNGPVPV
Sequence of UniProt Q99683 (whole entry, looked up): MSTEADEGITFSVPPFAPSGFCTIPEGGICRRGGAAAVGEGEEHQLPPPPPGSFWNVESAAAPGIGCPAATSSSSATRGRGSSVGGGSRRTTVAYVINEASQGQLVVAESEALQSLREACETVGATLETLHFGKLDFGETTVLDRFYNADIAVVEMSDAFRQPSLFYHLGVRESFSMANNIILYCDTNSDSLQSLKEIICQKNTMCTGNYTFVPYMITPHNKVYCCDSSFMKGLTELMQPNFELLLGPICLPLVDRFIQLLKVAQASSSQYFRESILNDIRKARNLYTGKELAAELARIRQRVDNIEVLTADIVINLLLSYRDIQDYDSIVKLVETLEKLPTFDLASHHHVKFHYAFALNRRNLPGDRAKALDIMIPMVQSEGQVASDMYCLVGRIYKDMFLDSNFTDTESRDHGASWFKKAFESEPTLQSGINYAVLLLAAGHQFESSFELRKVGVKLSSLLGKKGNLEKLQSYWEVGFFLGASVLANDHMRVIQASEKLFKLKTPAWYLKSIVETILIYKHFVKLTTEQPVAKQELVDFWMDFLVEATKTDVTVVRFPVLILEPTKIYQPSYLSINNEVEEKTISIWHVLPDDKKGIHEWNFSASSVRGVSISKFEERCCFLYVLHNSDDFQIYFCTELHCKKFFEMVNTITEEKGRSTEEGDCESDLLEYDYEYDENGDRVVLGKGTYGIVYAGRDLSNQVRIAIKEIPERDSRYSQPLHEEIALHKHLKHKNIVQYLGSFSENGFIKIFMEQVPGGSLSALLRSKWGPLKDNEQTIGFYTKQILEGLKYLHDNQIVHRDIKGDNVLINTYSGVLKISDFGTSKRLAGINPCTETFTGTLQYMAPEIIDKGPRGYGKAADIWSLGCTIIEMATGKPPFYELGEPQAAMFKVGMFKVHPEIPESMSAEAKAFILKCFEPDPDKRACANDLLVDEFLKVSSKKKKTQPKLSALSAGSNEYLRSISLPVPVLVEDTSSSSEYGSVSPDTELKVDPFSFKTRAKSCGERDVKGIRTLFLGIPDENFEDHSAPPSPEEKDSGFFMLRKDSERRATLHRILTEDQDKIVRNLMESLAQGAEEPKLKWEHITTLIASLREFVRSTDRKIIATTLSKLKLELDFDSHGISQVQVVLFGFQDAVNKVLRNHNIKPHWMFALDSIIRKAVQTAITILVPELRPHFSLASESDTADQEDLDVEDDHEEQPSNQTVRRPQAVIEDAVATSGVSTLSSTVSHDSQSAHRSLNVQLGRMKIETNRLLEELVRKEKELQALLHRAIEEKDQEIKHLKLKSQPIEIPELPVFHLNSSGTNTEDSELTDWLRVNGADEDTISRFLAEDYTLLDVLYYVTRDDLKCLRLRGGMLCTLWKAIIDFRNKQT
Sequence of UniProt Q9HC98 (whole entry, looked up): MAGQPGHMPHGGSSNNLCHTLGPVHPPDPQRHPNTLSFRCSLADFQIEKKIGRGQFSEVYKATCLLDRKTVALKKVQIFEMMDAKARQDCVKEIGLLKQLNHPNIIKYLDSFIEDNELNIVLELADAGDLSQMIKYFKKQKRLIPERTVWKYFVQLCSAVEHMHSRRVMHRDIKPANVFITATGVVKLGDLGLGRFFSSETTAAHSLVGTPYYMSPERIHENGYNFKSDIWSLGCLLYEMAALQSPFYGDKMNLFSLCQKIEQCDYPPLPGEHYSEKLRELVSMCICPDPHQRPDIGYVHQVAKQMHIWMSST
Sequence of UniProt Q96LB1 (whole entry, looked up): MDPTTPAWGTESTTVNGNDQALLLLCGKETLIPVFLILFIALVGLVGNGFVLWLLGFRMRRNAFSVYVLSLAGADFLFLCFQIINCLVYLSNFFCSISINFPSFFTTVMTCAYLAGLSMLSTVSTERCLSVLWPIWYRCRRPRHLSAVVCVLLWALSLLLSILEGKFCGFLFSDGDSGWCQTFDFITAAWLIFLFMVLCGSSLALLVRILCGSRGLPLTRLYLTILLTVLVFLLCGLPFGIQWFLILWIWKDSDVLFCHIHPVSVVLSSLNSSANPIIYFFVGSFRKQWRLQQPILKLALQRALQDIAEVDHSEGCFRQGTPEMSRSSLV

Block 1
SMILES: CCN(CC)CCNC(=O)c1c(C)[nH]c(/C=C2\C(=O)Nc3ccc(Cl)cc32)c1C
Read-out: enzyme activity
Mode: inhibitor
Tested at: 0.5 µM
Relative to: control
Tyrosine-protein kinase ABL2 (ABL2, Homo sapiens, UniProt P42684) — remaining activity: 46.8%.
The remaining activity was 16.3% (Serine/threonine-protein kinase TBK1 (TBK1, Homo sapiens, UniProt Q9UHD2)).
The remaining activity was 39.3% (Tyrosine-protein kinase JAK3 (JAK3, Homo sapiens, UniProt P52333)).
For Casein kinase I isoform gamma-2 (CSNK1G2, Homo sapiens, UniProt P78368): remaining activity read 45.2%.
The remaining activity was 103% (Activin receptor type-1B (ACVR1B, Homo sapiens, UniProt P36896)).
The remaining activity was 43% (Serine/threonine-protein kinase ULK2 (ULK2, Homo sapiens, UniProt Q8IYT8)).
For Serine/threonine-protein kinase Nek6 (NEK6, Homo sapiens, UniProt Q9HC98): remaining activity read 97.8%.
It gave 103% for remaining activity (MAP kinase-activated protein kinase 2 (MAPKAPK2, Homo sapiens, UniProt P49137)).
For Casein kinase I isoform gamma-3 (CSNK1G3, Homo sapiens, UniProt Q9Y6M4): remaining activity read 47.7%.
Rhodopsin kinase GRK7 (GRK7, Homo sapiens, UniProt Q8WTQ7) — remaining activity: 62.2%.
It gave 11.5% for remaining activity (Tyrosine-protein kinase Mer (MERTK, Homo sapiens, UniProt Q12866)).
The remaining activity was 72.6% (Serine/threonine-protein kinase TAO2 (TAOK2, Homo sapiens, UniProt Q9UL54)).
The remaining activity was 98.8% (Mitogen-activated protein kinase 3 (MAPK3, Homo sapiens, UniProt P27361)).
For Fibroblast growth factor receptor 3 (FGFR3, Homo sapiens, UniProt P22607): remaining activity read 12.3%.
For Fibroblast growth factor receptor 1 (FGFR1, Homo sapiens, UniProt P11362): remaining activity read 20.3%.
For Serine/threonine-protein kinase ULK3 (ULK3, Homo sapiens, UniProt Q6PHR2): remaining activity read 21.6%.
It gave 98.2% for remaining activity (Angiopoietin-1 receptor (TEK, Homo sapiens, UniProt Q02763)).
For Mitogen-activated protein kinase kinase kinase 5 (MAP3K5, Homo sapiens, UniProt Q99683): remaining activity read 98.1%.
For Ephrin type-A receptor 3 (EPHA3, Homo sapiens, UniProt P29320): remaining activity read 92.5%.
For Macrophage-stimulating protein receptor (MST1R, Homo sapiens, UniProt Q04912): remaining activity read 96.7%.
The remaining activity was 118% (Mitogen-activated protein kinase kinase kinase 14 (MAP3K14, Homo sapiens, UniProt Q99558)).
For Dual specificity mitogen-activated protein kinase kinase 2 (MAP2K2, Homo sapiens, UniProt P36507): remaining activity read 41.4%.

Block 2
Compound: N=C(N)NC(=O)c1cnn(-c2cccc3ncccc23)c1C1CC1
Read-out: β-arrestin recruitment
Mode: agonist
Technique: PRESTO-Tango
Tested at: 10 µM
Relative to: untreated
Mas-related G-protein coupled receptor member X2 (MRGPRX2, Homo sapiens, UniProt Q96LB1) — “fold over basal”: 1.06.
The “fold over basal” was 1.27 (Opsin-5 (OPN5, Homo sapiens, UniProt Q6U736)).
Trace amine-associated receptor 5 (TAAR5, Homo sapiens, UniProt O14804) — “fold over basal”: 1.32 fold.
It gave 0.97 for “fold over basal” (Neuromedin-B receptor (NMBR, Homo sapiens, UniProt P28336)).
For Neuropeptide Y receptor type 5 (NPY5R, Homo sapiens, UniProt Q15761): “fold over basal” read 1.17.
It gave 0.7 for “fold over basal” (Muscarinic acetylcholine receptor M5 (CHRM5, Homo sapiens, UniProt P08912)).
For Beta-2 adrenergic receptor (ADRB2, Homo sapiens, UniProt P07550): “fold over basal” read 0.9.
G-protein coupled receptor 171 (GPR171, Homo sapiens, UniProt O14626) — “fold over basal”: 1.16.

Block 3
Host: human
Matrix: microsomes or S9
Tested at: 2 µM
Time: 0.5 h
For COc1nc(C)cc(C)c1-c1nc2c([nH]1)CC(C)(C)CNC2=O, the remaining compound was 83.8%.
For CC(C)CNCC(=O)Nc1ccc(C(=O)N2c3ccc(S(=O)(=O)N4CC(c5ccccc5)NC4=O)cc3CC2C)cc1 (stereo not drawn), the remaining compound was 3.24%.
With CCOc1ccc(C(C)=O)cc1COc1ncnc2ccc(Br)cc12 the remaining compound was > 100%.
For Cc1cc(N)cc(Br)c1OCc1ccccc1, the remaining compound was 25.2%.
CCC1=NOC(CNC(=O)c2cc(C)c(CC)n(C)c2=O)C1 (stereo not drawn) gave a remaining compound of 67.8%.
With Clc1nc2cccnc2n2nc(-c3ccco3)cc12 the remaining compound was 3.79%.
With CN(C)CCCC(C#N)c1cccc2ccccc12 (stereo not drawn) the remaining compound was > 99%.

Block 4
Matrix: hydrocarbon/water
pH: 7.4
With CC[C@H]1NC(=O)[C@H](CC(C)C)NC(=O)[C@H](Cc2ccccc2)NC(=O)[C@H]2CCCN2C(=O)[C@H](CC(C)C)NC(=O)[C@H](C)NC1=O the logD was -0.607.
The logD of CCC[C@@H]1NC(=O)[C@H](C)N(C)C(=O)[C@H](CC(C)C)NC(=O)Cn2cc(nn2)CN(C)C(=O)[C@H](CC(C)C)NC(=O)[C@H](C)N(C)C(=O)[C@H](CC2CCCCC2)NC(=O)CN(CCC)C(=O)[C@H]2CCCN2C1=O is reported as 0.706.
CC(C)C[C@@H]1NC(=O)CN(Cc2ccc3c(c2)OCO3)C(=O)[C@H](C)NC(=O)[C@H](CC(C)C)N(C)C(=O)[C@H]2CCCN2C(=O)[C@H](C)NC(=O)CN(CC2CCOCC2)C(=O)[C@H](C)NC(=O)[C@H](CC(C)C)N(C)C(=O)[C@H]2CCCN2C1=O has a logD of 0.159.
The logD of CCC[C@@H]1NC(=O)[C@H](C)N(C)C(=O)[C@H](CC(C)C)NC(=O)Cn2cc(nn2)CN(C)C(=O)[C@H](CC(C)C)NC(=O)[C@H](C)N(C)C(=O)[C@H](CC(C)C)NC(=O)[C@H](CCC)N(C)C(=O)[C@H]2CCCN2C1=O is reported as 0.316.
CC[C@H]1C(=O)N[C@@H](CC2CCCCC2)C(=O)N(C)[C@@H](C)C(=O)N[C@@H](CC(C)C)C(=O)N(C)Cc2cn(nn2)CC(=O)N[C@@H](CC(C)C)C(=O)N(C)[C@@H](C)C(=O)N[C@@H](CC(C)C)C(=O)N2CCC[C@@H]2C(=O)N1C gave a logD of 1.32.
CCC[C@@H]1NC(=O)[C@H](C)N(C)C(=O)[C@H](CC(C)C)NC(=O)Cn2cc(nn2)CN(C)C(=O)[C@H](CC(C)C)NC(=O)[C@H](C)N(C)C(=O)[C@H](CC2CCCCC2)NC(=O)[C@H](CCC)N(C)C(=O)[C@H]2CCCN2C1=O has a logD of 1.36.
CCCCCN1CC(=O)N[C@@H](Cc2ccccc2)C(=O)N2CCC[C@@H]2C(=O)N(C)[C@@H](CC(C)C)C(=O)N[C@@H](C)C(=O)N(Cc2ccc3c(c2)OCO3)CC(=O)N[C@@H](CC(C)C)C(=O)N2CCC[C@@H]2C(=O)N(C)[C@@H](CC(C)C)C(=O)N[C@@H](C)C1=O gave a logD of 2.59.
With CC(C)C[C@@H]1NC(=O)[C@H](C)N(C)C(=O)[C@H](CC2CCCCC2)NC(=O)[C@H](CC(C)C)N(C)C(=O)[C@H]2CCCN2C(=O)[C@H](CC2CCCCC2)NC(=O)[C@H](C)N(C)C(=O)[C@H](CC(C)C)NC(=O)Cn2cc(nn2)CN(C)C1=O the logD was 2.53.
For CC(C)C[C@@H]1NC(=O)[C@H](Cc2ccc(O)cc2)N(C)C(=O)[C@H]2CCCN2C(=O)[C@H](CC(C)C)NC(=O)[C@H](CC(C)C)N(C)C(=O)[C@@H](C)N(C)C1=O, the logD was 0.638.
With CC(C)C[C@@H]1NC(=O)[C@H](Cc2ccccc2)N(C)C(=O)[C@H]2CCCN2C(=O)[C@H](CC(C)C)NC(=O)[C@H](C)N(C)C(=O)[C@@H](C)N(C)C1=O the logD was 1.61.

Further values, each from its own experiment
For CC(=O)Nc1c(F)cc(C(=O)N[C@H]2CC[C@H](O)CC2)cc1O[C@@H](C)c1ccccc1, the healthy nuclei was 42% (HEK293T; high-content imaging; concentration not given, 24 h, recommended concentration).
